# Results gathered from unrelated publications.
# Lines come from different studies, so protocols differ. Several values in a cell are separate wells, animals, samples, runs or records. ± gives the spread as reported.
# Cell line: MDA-MB-231
Structure (SMILES),observed,method,tested at,time,setting,quantity,result
CC(C)c1ccc(N(C)c2ccc3c(c2)OCC[C@H]3CNc2cnccc2C(=O)O)cc1,,"flow cytometry, propidium iodide",0.1 µM,24 h,,S-phase cells,40%
CCCNC(=O)[C@H]1O[C@@H]1C(=O)N[C@H](C(=O)N1CCC[C@H]1C(=O)OCC1=C2C(C)=CC(C)=[N+]2[B-](F)(F)n2c(C)cc(C)c21)[C@@H](C)CC,cell viability,MTT,concentration not given,72 h,irradiated 15 min up to 470 nm,EC50,> 50 µM
C[C@@H]1CC[C@@H]([C@](O)(CNCc2cccc(F)c2)COCc2ccccc2)[C@H](OCc2ccccc2)C1,cell growth or viability,MTT,10 µM,72 h,,inhibition,95.4%
CCc1c(C)c2ccc(OC(C)C)c(C)c2oc1=O,cell growth or viability,MTT,62.5 µg/mL,,,viability,24.5%
CC(=O)OCC1=C2C(C)=CC(C)=[N+]2[B-](C)(C)n2c(C)cc(C)c21,,MTT,50 µM,4 h,light and dark,cytotoxicity,not toxic
C[C@@H]1CC[C@@H]([C@@](O)(COCc2ccccc2)Cn2cnc3ccccc32)[C@H](OCc2ccccc2)C1,cell growth or viability,MTT,30 µM,72 h,,inhibition,98.3%
Oc1cccc(-c2cccc(O)n2)n1.[Cl-].[Cl-].[Ru+2].c1ccc(-c2ccnc3c2ccc2c(-c4ccccc4)ccnc23)cc1.c1ccc(-c2ccnc3c2ccc2c(-c4ccccc4)ccnc23)cc1,cell growth or viability,,,,dark,EC50,10 µM
CCCNC(=O)[C@H]1O[C@@H]1C(=O)N[C@H](C(=O)N1CCC[C@H]1C(=O)OCC1=C2C(C)=CC(C)=[N+]2[B-](CC)(CC)n2c(C)cc(C)c21)[C@@H](C)CC,cell viability,MTT,concentration not given,72 h,irradiated 15 min up to 470 nm,EC50,> 50 µM
C[C@@H]1CC[C@@H]([C@@](O)(CNCc2ccc(F)cc2)COCc2ccc(F)cc2)[C@H](OCc2ccc(F)cc2)C1,cell growth or viability,MTT,30 µM,72 h,,inhibition,99.3%
CCCNC(=O)[C@H]1O[C@@H]1C(=O)N[C@H](C(=O)N1CCC[C@H]1C(=O)OCC1=C2C(C)=CC(C)=[N+]2[B-](C)(C)n2c(C)cc(C)c21)[C@@H](C)CC,cell viability,MTT,,72 h,dark,EC50,24 ± 3.3 µM
COc1ccc(COC[C@](O)(CNCc2ccccc2)[C@@H]2CC[C@@H](C)C[C@H]2OCc2ccc(OC)cc2)cc1,cell growth or viability,MTT,10 µM,72 h,,inhibition,97.5%
COc1ccccc1-c1ccncc1C(=O)Nc1nnc(OCc2ccc(Cl)cc2)s1,,,0.1875 µM,,,colony count,35 and 24.5
CC(=O)[O][Pd][c]1ccccc1-n1nc(C)cc1C.CC(=O)[O][Pd][c]1ccccc1-n1nc(C)cc1C,,FLICA flow cytometry,25 µM,24 h,,caspase-8 active cells,31.1 ± 2.05%
COc1ccc(CNC[C@@](O)(COCc2ccc(F)cc2)[C@@H]2CC[C@@H](C)C[C@H]2OCc2ccc(F)cc2)cc1,cell growth or viability,MTT,10 µM,72 h,,inhibition,98.5%
CC(=O)OC[C@H]1O[C@@H](n2cc(CSc3nc4ccccc4n3Cc3cn([C@@H]4O[C@H](COC(C)=O)[C@@H](OC(C)=O)C(OC(C)=O)[C@H]4OC(C)=O)nn3)nn2)[C@H](OC(C)=O)C(OC(C)=O)[C@@H]1OC(C)=O (stereo in doubt),,MTT,62.5 ppm,,,cytotoxicity,90.6%
